Results of several laboratories.
Protocols differ between the studies behind these lines. Several values in a cell are separate wells, animals, samples, runs or records. Numbers after ± are the reported error.

Structure (SMILES)	test	system	setting	scale	measurement	value
C=CC(=O)Nc1cc(Nc2nccc(-c3c[nH]c4ccccc34)n2)c(OC)cc1N(C)CCN(C)C	storage stability	human dried blood spot	2 h, -80 °C, LQC level		recovery	101%
O=C1NC2(CC2)COc2ncc(F)cc2[C@H]2COCCN2c2ccn3ncc1c3n2	bone marrow micronucleus test	NIH mice, female	oral, 20 mg/kg/day, 3 days		micronucleus rate	0.65 ± 0.22 ‰
Cc1ccc(OCC(=O)N(Cc2cccs2)c2ccn[nH]2)cc1		monkey plasma	750 ng/mL, 6 h, 37 °C, unit not given	baseline: time zero	remaining compound	70.7
O=C1CCC(N2Cc3cc(C(=O)O)c(F)cc3C2=O)C(=O)N1 (stereo not shown)		male CD-1 mouse, plasma	intravenous, 1 mg/kg, 1.02 min		concentration	3670 ng/mL
CC(C)(C)NC(=O)c1ccccc1		water	24 h		logP	2.01
CN(Cc1ccccc1)C(=O)CN1CCN(CC(=O)N(C)Cc2ccccc2)CCN(Cc2cccc(C(=O)[O-])n2)CC1.[44Sc+3]		mouse, heart	intravenous, 1 h		tracer uptake	0.68 %ID/g
N#C[C@@H]1CCCN1C(=O)CNC(=O)c1ccnc2ccc(OCCCN3CCN(C(=O)CCc4ccc5c(c4)CN4CCN(Cc6cc(CCC(=O)O)ccc6O)CC(=O)[O][Al-]([18F])([O]C(=O)C4)[O]5)CC3)cc12 (stereo partly shown)		BALB/c nude mice, U-87 MG tumour	120 min post-injection	baseline: tumour over bone	tumour-to-organ ratio	1.49 ± 0.45
[123I]c1ccc2nc(-c3ccc(-n4ccnn4)nc3)cn2c1		male Wistar rat, muscle	intravenous, 4 MBq, 30 min		tracer uptake	0.101 %ID/g
C=CC(=O)Nc1cc(Nc2nccc(-c3cn(C)c4ccccc34)n2)c(OC)cc1N(C)CCNC	storage stability	human plasma	72 h, -80 °C, medium QC level		recovery	98.1%
O=C([O-])CN1CCN(CC(=O)[O-])CCN(Cc2cccc(C(=O)[O-])n2)CC1.[177Lu+3]		mouse, stomach	intravenous, 1 h		tracer uptake	0.36 %ID/g
CC(=O)N([O-])CCCCCNC(=O)CCC(=O)N([O-])CCCCCNC(=O)CCC(=O)N([O-])CCCCCN.[89Zr+4]	radio-TLC	aqueous buffer	7 d, pH 5, 37 °C, 89Zr-labelled complex, with: DTPA 100-fold excess		intact complex	92.2 ± 0.8%
O=C(c1ccccc1)N1C(c2ccc(OCC3CCN(CCCF)C3)cc2)c2ccc(O)cc2CC12CC2 (stereo not shown)		C57BL/6J mouse, plasma	oral, 25 mg/kg		AUC(0-inf)	2830 ng·h/mL
CC[C@H](C)[C@@H]1NC(=O)[C@H](Cc2ccc(O)cc2)NC(=O)CCCSC[C@@H](C(=O)N(CC(=O)N[C@@H](CC(C)C)C(=O)NCC(N)=O)Cc2ccc(F)cc2)NC(=O)[C@H](CC(N)=O)NC(=O)[C@H](CCC(N)=O)NC1=O		healthy human females, plasma	intranasal, 300 µg single dose		AUC(0-last)	0.101 ng·h/mL
O=C(NS(=O)(=O)c1cccs1)c1cc2ccccc2n1Cc1ccc(Br)c2ccccc12		mouse, plasma	oral, 1 mg/kg		AUC(0-inf)	212 ± 29.3 ng·h/mL
CC(C)(O)c1ccc(N2Cc3c(ccnc3-c3ccc(F)cc3OCC(F)(F)F)C2=O)cc1		male C57BL/6 mouse, plasma	oral, 30 mg/kg, 6 h		concentration	6120 ng/mL
N=C(N)NCCC[C@@H]1NC(=O)[C@H](CO)NC(=O)[C@@H](NC(=O)[C@H](CO)NC(=O)[C@H](CO)NC(=O)[C@H](Cc2c[nH]c3ccccc23)NC(=O)CNC(=O)[C@H](CO)NC(=O)[C@@H](N)Cc2c[nH]c3ccccc23)CSSC[C@@H](C(=O)NCC(=O)O)NC(=O)[C@H](CO)NC1=O		patients, plasma	intravenous, 5 mg/kg, thrice weekly, geometric mean		AUC(0-80 min)	350 ng·h/mL
C=C(NC(=O)c1csc(-c2nc3c(cc2O)-c2nc(cs2)C(=O)NC(C(C)O)C(=O)NC(=C(C)OC)c2nc(cs2)C(=O)NC2c4nc(cs4)C(=O)NC(COC(=O)c4c5c6c(cccc6n4O)COC(=O)C(OC4CC(C)(O)C(N(C)C)C(C)O4)C2OC5)c2nc-3cs2)n1)C(N)=O (stereo not shown)		Sprague-Dawley rats, male, plasma	intravenous infusion, 6 mg/kg, day 7, multiple dosing		AUC(0-t)	1560 ng·h/mL
CN(Cc1ccccc1)C(=O)CN1CCN(CC(=O)[O-])CCN(Cc2cccc(C(=O)[O-])n2)CC1.[18F-].[Sc+3]		mouse, stomach	intravenous, 1 h		tracer uptake	0.08 %ID/g
Cc1nn(-c2nc3c(F)cc(F)cc3s2)c(O)c1C(c1ccc(C(F)(F)F)cc1)c1c(C)nn(-c2nc3c(F)cc(F)cc3s2)c1O		ICR mouse, plasma	iv, 5 mg/kg		AUC(0-inf) per dose	24400 kg·ng·h/mL/mg and 9670 kg·ng·h/mL/mg and 7900 kg·ng·h/mL/mg
CN(Cc1ccccc1)C(=O)CN1CCN(CC(=O)[O-])CCN(CC(=O)N(C)Cc2ccccc2)CC1.[44Sc+3]		mouse, lung	intravenous, 1 h		tracer uptake	1.23 %ID/g

Structure (SMILES)	test	system	setting	scale	measurement	value
COc1cccc(OC)c1-c1cc(C(=O)NC2(C(=O)O)C3CC4CC(C3)CC2C4)nn1-c1ccc(C(=O)NCCNC(=O)[C@H](CCCCNC(=O)[C@H](CC(C)C)NC(=O)C2OC2C(=O)O)NC(=O)CN2CCN(CC(=O)[O-])CCN(CC(=O)[O-])CCN(CC(=O)[O-])CC2)cc1C(C)C.[177Lu+3] (mixture of isomers)		mouse, HT-29 xenograft, HT-29 tumour	24 h post injection		tissue uptake	6.3 %ID/g
CN(Cc1ccccc1)C(=O)CN1CCN(CC(=O)[O-])CCN(CC(=O)[O-])CC1.[44Sc+3]		mouse, lung	intravenous, 1 h		tracer uptake	1.69 %ID/g
CCCCN1C(=O)c2cccc3c(NCCCCN4CCOCC4)ccc(c23)C1=O		ethyl acetate			fluorescence quantum yield	0.3
CN1CCN(C(=S)N/N=C/c2ccccc2O)CC1		plasma	intravenous, 30 mg/kg		MRT(0-inf)	0.53 ± 0.24 h
O=C([O-])CN1CCN(CC(=O)[O-])CCN(CC(=O)[O-])CC1.[44Sc+3]		mouse, bone	intravenous, 1 h		tracer uptake	0.26 %ID/g
N#C[C@@H]1CCCN1C(=O)CNC(=O)c1ccnc2ccc(OCCCN3CCN(C(=O)CCc4ccc(O)c(CN5CCN6CC(=O)[O][Al-]([18F])([O]C(=O)C5)[O]c5ccc(CCC(=O)N7CCN(CCCOc8ccc9nccc(C(=O)NCC(=O)N%10CCC[C@H]%10C#N)c9c8)CC7)cc5C6)c4)CC3)cc12 (stereo partly shown)	radio-TLC	CD-1 mice, plasma	intravenous, 120 min post-injection		radiochemical purity	60.6 ± 8.7%
COC1C=COC2(C)Oc3c(C)c(O)c4c(c3C2=O)C2=NC3(CCN(CC(C)C)CC3)NC2=C(NC(=O)C(C)=CC=CC(C)C(O)C(C)C(O)C(C)C(OC(=O)c2cncnc2)C1C)C4=O (stereo not shown)		CD-1 mouse female, plasma	intravenous, 5 mg/kg		elimination half-life	7.2 h
CCC1CNC(CC)CN(C(C(=O)[O-])c2ccc(C(=O)[O-])cc2)C(CC)CN(CC(=O)[O-])C(CC)CN1.[Mn+2] (stereo not shown)	ICP-MS	BALB/c mouse, intestine	intravenous, 0.05 mmol/kg, 1440 min, without anaesthesia		Mn content	9.17 ± 2.62 µg/g
O=C(Nc1cnccc1-c1ccc([18F])cc1)c1ccnc(NC(=O)C2CC2)c1	ex vivo gamma counting	GSK-3β transgenic mice, late-stage, bladder	intravenous, 120 min, mean, P-gp inhibitor pretreatment, with: tariquidar 15 mg/kg iv		SUV	1.17
CN([O-])C(=O)CN1CCNCCN(CC(=O)N(C)[O-])CC1.[89Zr+4]	radio-TLC	human serum	2 days, run 2		intact complex	100%
Cc1cc(Cl)cc([S+](C)[O-])c1NC(=O)c1cc(Br)nn1-c1ncccc1Cl (stereo not shown)	potentiometric				logP	3.6
O=C([O-])CN1CCN(CC(=O)O)CCN(CC(=O)[O-])CCN(CC(=O)O)CC1.[64Cu+2]	dynamic PET	rat, chronic myocardial infarction	intravenous, dose not given		time to infarct accumulation	≤ 1 min
C[N+](C)(CCOCCOCCOCCNC(=S)Nc1ccc(C[C@H]2CN(CC(=O)[O-])CCN(CC(=O)[O-])CCN2CC(=O)[O-])cc1)C[c-]1cccc1.[64Cu+2].[Fe+2].c1cc[cH-]c1		nude mice, BxPC-3 xenograft, large intestine	8 h, pretargeted, 144 h lag time		large intestine uptake	2.3 ± 0.3 %ID/g
COc1cccc(OC)c1-c1cc(C(=O)NC2(C(=O)O)C3CC4CC(C3)CC2C4)nn1-c1ccc(C(=O)N(C)CCCN(C)C(=O)[C@H](CCCCNC(=O)[C@H](CC(C)C)NC(=O)C2OC2C(=O)O)NC(=O)CN2CCN(CC(=O)[O-])CCN(CC(=O)[O-])CCN(CC(=O)[O-])CC2)cc1C(C)C.[177Lu+3] (mixture of isomers)		mouse, HT-29 xenograft	72 h post injection, biodistribution	baseline: tumour over muscle uptake	tumour-to-muscle ratio	35.3
C/C(N)=N/C(=N\S(=O)(=O)c1ccc(C(F)(F)F)cc1)N1C[C@H](c2ccccc2)C(c2ccc(Cl)cc2)=N1		male C57BL/6 mouse, brain	oral, 10 mg/kg		Cmax	26.6 ng/mL
CC(C)(O)c1ncc([S@](N)(=O)=NC(=O)Nc2c3c(cc4c2CCC4)CCC3)s1	refers to: eye disorders	healthy human	oral, 300 mg, SDD formulation		subjects with TEAEs	17%
CN1C(=O)[C@@H](Cc2ccc(O)c(I)c2)NC(=O)CNC(=O)[C@H](Cc2ccc3ccccc3c2)NC(=O)[C@H](CCCNC(=N)N)NC(=O)[C@H]1CCCNC(=O)c1ccc(CNC(=O)CN2CCN(CC(=O)O)CCN(CC(=O)O)CCN(CC(=O)O)CC2)cc1 [lutetium-177 labelled]	2	human, extrapolated from mouse, gallbladder wall			total absorbed dose	0.011 mGy/MBq
CC[C@H](C)[C@H](NC(=O)[C@H](CCC(N)=O)NC(=O)[C@@H](NC(=O)[C@@H]1CCCN1[C@@H]1CN(C(=O)[C@H](CCCCN)NC(=O)[C@H](CC(N)=O)NC(=O)[C@@H](NC(=O)[C@@H](NC(=O)[C@H](CCC(N)=O)NC(=O)[C@@H](N)C(C)C)[C@@H](C)CC)[C@@H](C)CC)CC[C@H]1NS(=O)(=O)c1ccc(C)cc1)C(C)C)C(=O)N[C@H](C(=O)N[C@@H](Cc1ccc(O)cc1)C(=O)N[C@@H](CCCCN)C(N)=O)C(C)C	CD spectroscopy	20 mM phosphate buffer	125 µM, 20 °C		random coil content	60.4%
O=C(Nc1cnccc1-c1ccc([18F])nc1)c1ccnc(NC(=O)C2CC2)c1	PET imaging	FVB/NJ mice, both sexes, brain	intravenous, 5 min post-injection, P-gp inhibited, with: tariquidar 15 mg/kg iv, 2 h before		SUV over first 5 min	0.22 ± 0.1
Cc1cc(-c2ccc(C(=O)[C@@H]3CCCC[C@H]3C(=O)Nc3cnn4c3C(=O)NCC4)cc2)[nH]n1		human, urine	oral, 200 mg, 24-48 h	baseline: dose	radioactivity recovery per interval	0.33% and 0.32% and 0.23% and 0.48% and 0.41% and 0.26%

A few entries again:
Structure (SMILES)	test	system	setting	scale	measurement	value
C[N+](C)(CCOCCOCCOCCNC(=S)Nc1ccc(C[C@H]2CN(CC(=O)[O-])CCN(CC(=O)[O-])CCN2CC(=O)[O-])cc1)C[c-]1cccc1.[64Cu+2].[Fe+2].c1cc[cH-]c1		nude mice, BxPC-3 xenograft, large intestine	8 h, pretargeted, 144 h lag time		large intestine uptake	2.3 ± 0.3 %ID/g
O=C([O-])CN1CCN(CC(=O)[O-])CCN(Cc2cccc(C(=O)[O-])n2)CC1.[177Lu+3]		mouse, stomach	intravenous, 1 h		tracer uptake	0.36 %ID/g
COc1cccc(OC)c1-c1cc(C(=O)NC2(C(=O)O)C3CC4CC(C3)CC2C4)nn1-c1ccc(C(=O)N(C)CCCN(C)C(=O)[C@H](CCCCNC(=O)[C@H](CC(C)C)NC(=O)C2OC2C(=O)O)NC(=O)CN2CCN(CC(=O)[O-])CCN(CC(=O)[O-])CCN(CC(=O)[O-])CC2)cc1C(C)C.[177Lu+3] (mixture of isomers)		mouse, HT-29 xenograft	72 h post injection, biodistribution	baseline: tumour over muscle uptake	tumour-to-muscle ratio	35.3
CN(Cc1ccccc1)C(=O)CN1CCN(CC(=O)[O-])CCN(CC(=O)[O-])CC1.[44Sc+3]		mouse, lung	intravenous, 1 h		tracer uptake	1.69 %ID/g
